Published values pooled from the literature.
Compare with care: the assays were run in different laboratories. Values joined by “and” are separate records of one study, mostly repeats; a detail may differ. ± gives the spread as reported.
PPARG: Peroxisome proliferator-activated receptor gamma (PPARG, Homo sapiens, UniProt P37231)

Substance | tested on | test | test system | setting | scale | endpoint | result
C[C@@H](O)[C@@H]1NC(=O)[C@H](CCCCN)NC(=O)[C@@H](Cc2c[nH]c3ccccc23)NC(=O)[C@H](Cc2ccc(O)cc2)NC(=O)[C@@H](NC(=O)[C@@H](Cc2ccccc2)NC(=O)CN2CCN(CC(=O)O)CCN(C(=O)CCNC(=O)c3ncn4c(=O)n(C)nnc34)CCN(CC(=O)O)CC2)CSSC[C@@H](C(=O)N[C@H](CO)[C@@H](C)O)NC1=O [gallium-68 labelled] |  | ex vivo gamma counting | mouse, NCI-H69 xenograft, NCI-H69 tumour | intravenous, 2 nmol, 1 h |  | tumour uptake | 3.68 ± 0.88 %ID/g
COC1CN([C@H]2CC[C@H]([C@@]3(C)Oc4c(Cl)cc(C(=O)NCc5c(SC)cc(C)[nH]c5=O)c(C)c4O3)CC2)C1 |  | RNA-seq, measured: PCDH17 | human, whole blood | dose not given, 24 h | relative to: pretreatment baseline | log2 fold change | 5.52
CC(C)C[C@H](NC(=O)[C@@H](CCCCNC(=O)[C@@H](Cc1ccccc1)NC(=O)CCCCCNC(=O)CN1CCN(CC(=O)O)CCN(CC(=O)O)CCN(CC(=O)O)CC1)NC(=O)[C@H](Cc1ccc(O)cc1)NC(=O)[C@H](CO)NC(=O)[C@H](Cc1c[nH]c2ccccc12)NC(=O)[C@H](Cc1c[nH]cn1)NC(=O)[C@@H]1CCC(=O)N1)C(=O)N[C@@H](CCCNC(=N)N)C(=O)N1CCC[C@H]1C(=O)NCC(N)=O [indium-111 labelled] |  |  | female athymic nude mice, bone | intravenous, 0.037 MBq, 4 h |  | tissue uptake | 0.07 ± 0.05 %ID/g
CCCC[C@H](NC(=O)CCCCCCCNC(=O)CN1CCN(CC(=O)O)CCN(CC(=O)O)CC1)C(=O)N[C@H]1CC(=O)NCCCC[C@@H](C(N)=O)NC(=O)[C@H](Cc2c[nH]c3ccccc23)NC(=O)[C@H](CCCNC(=N)N)NC(=O)[C@@H](Cc2ccccc2)NC(=O)[C@H](Cc2c[nH]cn2)NC1=O [technetium-99m labelled] |  |  | C57 mouse, kidneys | intravenous, 0.037 MBq, 2 h |  | tissue uptake | 1.32 ± 0.92 %ID/g
CC(C)C[C@@H](NC(=O)[C@@H](CC(C)C)NC(=O)[C@@H](CC(=O)O)NC(=O)[C@@H](CC(C)C)NC(=O)[C@@H](CC(C)C)NC(=O)[C@@H](CC(C)C)NC(=O)[C@H](NC(=O)[C@@H](CC(=O)O)NC(=O)[C@H](NC(=O)[C@H]1CCCN1C(=O)[C@@H](Cc1ccccc1)NC(=O)[C@@H](CC(C)C)NC(=O)[C@@H](CC(C)C)NC(=O)[C@@H](CC(=O)O)NC(=O)[C@@H](CC(C)C)NC(=O)[C@@H](Cc1ccc(O)cc1)NC(=O)[C@@H](C)NC(=O)[C@@H](CCCNC(=N)N)NC(=O)[C@@H](Cc1c[nH]c2ccccc12)NC(=O)[C@H]1CCCN1C(=O)[C@@H](CC(N)=O)NC(=O)[C@@H](CCC(N)=O)NC(=O)[C@@H](CC(=O)O)NC(=O)[C@@H](CC(=O)O)NC(=O)[C@@H](CSC1CC(=O)N(CCNC(=O)CN2CCN(CC(=O)O)CCN(CC(=O)O)CC2)C1=O)NC(=O)[C@@H](C)N)[C@H](C)O)[C@H](C)O)C(=O)N[C@H](Cc1c[nH]c2ccccc12)C(=O)O (stereo partly shown) [fluorine-18 labelled] |  |  | male nude mouse, U-87 MG xenograft, tumour | intravenous, 6 h |  | tumour uptake | 3.97 %ID/g
O=C(CCCc1cn(C[C@H]2O[C@@H]3O[C@H]4[C@H](O)[C@@H](O)[C@@H](O[C@H]5[C@H](O)[C@@H](O)[C@@H](O[C@H]6[C@H](O)[C@@H](O)[C@@H](O[C@H]7[C@H](O)[C@@H](O)[C@@H](O[C@H]8[C@H](O)[C@@H](O)[C@@H](O[C@H]2[C@H](O)[C@H]3O)O[C@@H]8Cn2cc(CCCC(=O)N[C@H]3CCOC3=O)nn2)O[C@@H]7Cn2cc(CCCC(=O)N[C@H]3CCOC3=O)nn2)O[C@@H]6Cn2cc(CCCC(=O)N[C@H]3CCOC3=O)nn2)O[C@@H]5Cn2cc(CCCC(=O)N[C@H]3CCOC3=O)nn2)O[C@@H]4Cn2cc(CCCC(=O)N[C@H]3CCOC3=O)nn2)nn1)N[C@H]1CCOC1=O |  | 1H NMR |  |  | relative to: native alpha-cyclodextrin | water solubility fold decrease | ~50
CCCC[C@H](NC(=O)COCCOCCNC(=O)CN1CCN(CC(=O)O)CCN(CC(=O)O)CC1)C(=O)N[C@H]1CC(=O)NCCCC[C@@H](C(N)=O)NC(=O)[C@H](Cc2c[nH]c3ccccc23)NC(=O)[C@H](CCCNC(=N)N)NC(=O)[C@@H](Cc2ccccc2)NC(=O)[C@H](Cc2c[nH]cn2)NC1=O [technetium-99m labelled] |  |  | C57 mouse, skin | intravenous, 0.037 MBq, 0.5 h |  | tissue uptake | 3.73 ± 1.16 %ID/g
CC(C)C[C@H](NC(=O)[C@H](Cc1ccc(O)cc1)NC(=O)[C@@H](CCCNC(=N)N)NC(=O)[C@@H](CO)NC(=O)[C@H](Cc1ccccc1)NC(=O)[C@H](CC1CCCCC1)NC(=O)[C@H](CC(=O)O)NC(=O)CN1CCN(CC(=O)O)CCN(CC(=O)O)CCN(CC(=O)O)CC1)C(=O)N[C@@H](Cc1c[nH]c2ccccc12)C(=O)N[C@@H](CO)C(=O)O [copper-64 labelled] |  |  | human, brain | concentration not given, 1 h |  | activity concentration | 171 Bq/mL and 157 Bq/mL and 235 Bq/mL and 146 Bq/mL and 310 Bq/mL and 366 Bq/mL
Cc1c(Cc2cc(Cl)cc(OC(C)C(=O)O)c2)c2ccc(C(=O)NC(C)c3ccc(C(C)(C)C)cc3)cc2n1C(C)C (stereo not shown) | PPARG | ligand displacement, TR-FRET |  |  |  | IC50 | 220 nM
C=C1CC[C@H](OCCCNC(=O)CCOCCOCCOCCOCCOCCOCCOCCOCCOCCOCCOCCOCCOCCOCCOCCOCCOCCOCCOCCOCCOCCOCCOCCOCCOCCOCCOCCOCCOCCOCCOCCOCCOCCOCCOCCOCCNC(=O)CCN2C(=O)CC(SC[C@H](NC(=O)[C@H](Cc3ccccc3)NC(=O)[C@H](CC(N)=O)NC(=O)[C@H](Cc3c[nH]cn3)NC(=O)[C@@H](NC(=O)[C@H](CC(=O)O)NC(=O)[C@H](CCC(N)=O)NC(=O)[C@H](CC(C)C)NC(=O)[C@H](CCCCN)NC(=O)[C@H](CCCCN)NC(=O)[C@H](CCCNC(=N)N)NC(=O)[C@H](CC(C)C)NC(=O)[C@H](Cc3c[nH]c4ccccc34)NC(=O)[C@H](CCC(=O)O)NC(=O)[C@@H](NC(=O)[C@H](CCCNC(=N)N)NC(=O)[C@H](CCC(=O)O)NC(=O)[C@H](CCSC)NC(=O)[C@H](CO)NC(=O)[C@H](CC(N)=O)NC(=O)[C@H](CC(C)C)NC(=O)[C@H](Cc3c[nH]cn3)NC(=O)[C@H](CCCCN)NC(=O)CNC(=O)[C@H](CC(C)C)NC(=O)[C@H](CC(N)=O)NC(=O)[C@H](Cc3c[nH]cn3)NC(=O)[C@H](CCSC)NC(=O)[C@H](CC(C)C)NC(=O)[C@H](CCC(N)=O)NC(=O)[C@@H](NC(=O)[C@H](CCC(=O)O)NC(=O)[C@H](CO)NC(=O)[C@@H](NC(=O)[C@@H](N)CO)C(C)C)[C@@H](C)CC)C(C)C)C(C)C)C(=O)O)C2=O)C/C1=C/C=C1\CCC[C@]2(C)[C@@H]([C@H](C)CCCC(C)(C)O)CC[C@@H]12 (stereo partly shown) |  |  | cynomolgus monkey male | sc, 0.02 mg/kg single |  | clearance | 0.134 mL/min/kg
nucleophosmin T78E |  | far-UV CD, CDSSTR | Tris buffer, NaCl | pH 7.5, room temperature |  | alpha-helix content | 17%
Cc1c(Cc2cccc(OCC(=O)O)c2)c2ccc(C(=O)N[C@@H](C)c3cccc(C(C)(C)C)c3)cc2n1C | PPARG | ligand displacement, TR-FRET |  |  |  | IC50 | 187 nM
N=C(N)NCCC[C@@H]1NC(=O)[C@H](CCCCNC(=S)Nc2ccc(CC3CN(CC(=O)O)CCN(CC(=O)O)CCN(CC(=O)O)CCN3CC(=O)O)cc2)NC(=O)[C@@H](Cc2ccc(O)cc2)NC(=O)[C@H](CC(=O)O)NC(=O)CNC1=O (stereo partly shown) [actinium-225 labelled] |  |  | mice with U-87 MG tumour, tumour | dose not given |  | initial activity A0 | 0.0021 µCi

Excerpt of the above:
Substance | tested on | test | test system | setting | scale | endpoint | result
CC(C)C[C@@H](NC(=O)[C@@H](CC(C)C)NC(=O)[C@@H](CC(=O)O)NC(=O)[C@@H](CC(C)C)NC(=O)[C@@H](CC(C)C)NC(=O)[C@@H](CC(C)C)NC(=O)[C@H](NC(=O)[C@@H](CC(=O)O)NC(=O)[C@H](NC(=O)[C@H]1CCCN1C(=O)[C@@H](Cc1ccccc1)NC(=O)[C@@H](CC(C)C)NC(=O)[C@@H](CC(C)C)NC(=O)[C@@H](CC(=O)O)NC(=O)[C@@H](CC(C)C)NC(=O)[C@@H](Cc1ccc(O)cc1)NC(=O)[C@@H](C)NC(=O)[C@@H](CCCNC(=N)N)NC(=O)[C@@H](Cc1c[nH]c2ccccc12)NC(=O)[C@H]1CCCN1C(=O)[C@@H](CC(N)=O)NC(=O)[C@@H](CCC(N)=O)NC(=O)[C@@H](CC(=O)O)NC(=O)[C@@H](CC(=O)O)NC(=O)[C@@H](CSC1CC(=O)N(CCNC(=O)CN2CCN(CC(=O)O)CCN(CC(=O)O)CC2)C1=O)NC(=O)[C@@H](C)N)[C@H](C)O)[C@H](C)O)C(=O)N[C@H](Cc1c[nH]c2ccccc12)C(=O)O (stereo partly shown) [fluorine-18 labelled] |  |  | male nude mouse, U-87 MG xenograft, tumour | intravenous, 6 h |  | tumour uptake | 3.97 %ID/g
